Published values gathered from unrelated publications.
Numbered parts are unrelated; each lists some results of a single study. Several values in a cell are separate wells, animals, samples, runs or records.
Sequence of UniProt P46934 (whole entry, looked up): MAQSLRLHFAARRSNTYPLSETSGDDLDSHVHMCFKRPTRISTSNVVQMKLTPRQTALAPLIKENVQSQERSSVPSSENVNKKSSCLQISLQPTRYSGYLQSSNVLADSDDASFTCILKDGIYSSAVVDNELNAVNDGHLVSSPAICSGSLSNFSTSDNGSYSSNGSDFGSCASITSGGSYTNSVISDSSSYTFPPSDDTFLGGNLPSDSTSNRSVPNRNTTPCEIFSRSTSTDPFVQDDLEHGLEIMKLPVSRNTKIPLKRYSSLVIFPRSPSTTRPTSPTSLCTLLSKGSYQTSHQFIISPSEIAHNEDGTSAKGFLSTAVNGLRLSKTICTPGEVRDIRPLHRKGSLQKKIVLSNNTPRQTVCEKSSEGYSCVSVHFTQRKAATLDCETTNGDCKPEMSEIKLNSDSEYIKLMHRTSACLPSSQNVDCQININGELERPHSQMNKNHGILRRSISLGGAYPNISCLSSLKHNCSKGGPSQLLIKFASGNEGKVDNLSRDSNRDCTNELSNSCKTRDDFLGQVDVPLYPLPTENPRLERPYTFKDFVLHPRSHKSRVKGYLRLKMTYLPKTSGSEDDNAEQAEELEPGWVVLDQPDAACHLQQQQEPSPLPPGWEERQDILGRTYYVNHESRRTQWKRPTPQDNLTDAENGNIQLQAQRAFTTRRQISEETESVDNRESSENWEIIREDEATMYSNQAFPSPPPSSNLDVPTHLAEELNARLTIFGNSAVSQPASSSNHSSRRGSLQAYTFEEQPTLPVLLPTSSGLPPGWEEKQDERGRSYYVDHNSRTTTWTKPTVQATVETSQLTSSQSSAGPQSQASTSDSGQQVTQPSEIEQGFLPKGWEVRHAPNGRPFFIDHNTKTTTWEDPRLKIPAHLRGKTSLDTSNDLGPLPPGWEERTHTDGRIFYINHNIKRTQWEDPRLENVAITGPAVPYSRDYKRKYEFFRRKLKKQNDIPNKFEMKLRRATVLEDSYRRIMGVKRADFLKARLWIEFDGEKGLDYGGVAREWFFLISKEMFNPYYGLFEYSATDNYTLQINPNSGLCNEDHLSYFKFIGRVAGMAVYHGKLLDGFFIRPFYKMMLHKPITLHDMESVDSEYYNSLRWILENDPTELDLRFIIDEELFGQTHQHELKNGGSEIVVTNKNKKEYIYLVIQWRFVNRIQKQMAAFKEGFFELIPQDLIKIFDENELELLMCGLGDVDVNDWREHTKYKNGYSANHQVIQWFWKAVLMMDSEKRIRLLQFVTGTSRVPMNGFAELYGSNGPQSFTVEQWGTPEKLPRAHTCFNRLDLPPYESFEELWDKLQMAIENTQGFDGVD

Series 1
SMILES: Cc1ccc(O)c(C)c1-c1cnc2[nH]c(-c3cnc(N4CCC(CN5CCN(c6ccc(N7CCC(=O)NC7=O)cc6F)CC5)CC4)nc3)cc2c1C#N
Target: Membrane-associated tyrosine- and threonine-specific cdc2-inhibitory kinase (PKMYT1, Homo sapiens, UniProt Q99640)
Read-out: binding
Technique: HTRF
Construct (Q99640 1-499): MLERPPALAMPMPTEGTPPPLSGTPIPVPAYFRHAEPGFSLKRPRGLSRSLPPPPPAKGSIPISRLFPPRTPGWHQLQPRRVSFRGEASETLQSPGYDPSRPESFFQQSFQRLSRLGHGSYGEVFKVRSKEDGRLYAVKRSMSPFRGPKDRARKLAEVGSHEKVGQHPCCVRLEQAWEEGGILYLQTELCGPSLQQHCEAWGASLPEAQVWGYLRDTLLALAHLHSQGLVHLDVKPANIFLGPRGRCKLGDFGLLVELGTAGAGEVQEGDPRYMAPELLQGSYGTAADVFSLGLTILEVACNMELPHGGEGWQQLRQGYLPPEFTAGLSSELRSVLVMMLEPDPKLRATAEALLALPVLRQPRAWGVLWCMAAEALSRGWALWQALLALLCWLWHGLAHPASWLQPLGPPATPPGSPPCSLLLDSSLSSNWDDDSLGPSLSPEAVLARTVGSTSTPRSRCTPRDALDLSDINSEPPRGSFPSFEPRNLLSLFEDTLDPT
setting | inhibition
0.051 nM | -2.09% and -2.19%
333.33 nM | 98.9% and 98.8%
4.12 nM | 49% and 50.4%

Series 2
Compound: Cn1cc(-c2cccc(CN3CCC4(CC3)COc3c4ccc4c3CN([C@H]3CCC(=O)NC3=O)C4=O)c2)cn1
system | setting | AUC(0-inf)
cynomolgus monkey, plasma | oral, 3.02 mg/kg | 1570 ng·h/mL
rat, plasma | intravenous, 1.02 mg/kg | 847 ng·h/mL
rat, plasma | oral, 2.98 mg/kg, group mean | 2840 ng·h/mL
cynomolgus monkey | intravenous, 1 mg/kg | 812 ng·h/mL and 1170 ng·h/mL and 862 ng·h/mL
rat | intravenous, 1 mg/kg, approximate dose | 785 ng·h/mL and 760 ng·h/mL and 997 ng·h/mL
cynomolgus monkey, plasma | intravenous, 1 mg/kg | 949 ng·h/mL
cynomolgus monkey | oral, 3 mg/kg | 1880 ng·h/mL and 1390 ng·h/mL and 1450 ng·h/mL
rat | oral, 3 mg/kg, approximate dose | 3680 ng·h/mL and 2150 ng·h/mL and 2700 ng·h/mL

Series 3
SMILES: N=C(N)NCCCCCCN1CCC23c4c5ccc(O)c4OC2c2nc4ccccc4cc2CC3(O)C1C5 (stereo not drawn)
Technique: modified Racine scale
Host: C57BL/6J mice, male
Route: intracerebroventricular
Dose: 100 nmol
Reading: direction not given
setting | seizure score
15 min | 0
75 min | 0
40 min | 0

Series 4
SMILES: CCCCC[C@@H]1CC(=O)N[C@@H](C(C)C)C(=O)N[C@H](CCCNC(=N)N)C(=O)N[C@@H](C(C)C)C(=O)NCC(=O)N2CCC[C@H]2C(=O)N[C@@H](CC(C)C)C(=O)N[C@H](CCCNC(=N)N)C(=O)N[C@@H](CCC(=O)O)C(=O)N[C@H](Cc2ccc(O)cc2)C(=O)N[C@H](Cc2c[nH]c3ccccc23)C(=O)NCCCC(=O)O1
Host: mouse, S. aureus infection
Route: subcutaneous
setting | survival [%]
10 mg/kg, day 0 | 100
30 mg/kg, day 5 | 100
5 mg/kg, day 5 | 40

Further values, each from its own experiment
Structure (SMILES) | target | test | system | setting | how to read | quantity | value
CCOC(=O)/C=C/CN(CCCCN1c2ccccc2CCc2ccc(Cl)cc21)Cc1ccccc1.O=C(O)/C=C\C(=O)O | E3 ubiquitin-protein ligase NEDD4, HECT domain (Homo sapiens, UniProt P46934) | enzyme activity, inhibitor, Ub-TR-FRET | HECT domain | 11.11 µM | higher = more chain formation | ubiquitin chain formation AUC | 114000 a.u. and 106000 a.u. and 105000 a.u. and 104000 a.u. and 115000 a.u. and 113000 a.u.

For quick reference, copied from above (series 2):
system | setting | AUC(0-inf)
cynomolgus monkey | oral, 3 mg/kg | 1880 ng·h/mL and 1390 ng·h/mL and 1450 ng·h/mL
rat, plasma | intravenous, 1.02 mg/kg | 847 ng·h/mL
rat | intravenous, 1 mg/kg, approximate dose | 785 ng·h/mL and 760 ng·h/mL and 997 ng·h/mL
